# Experimental data gathered from unrelated publications.
# Parts stem from different laboratories: compare values within a part only. Substitutions count along the parent as printed.

# Sample 1
# Target: Interferon regulatory factor 7, full length, phosphomimetic (IRF7, Homo sapiens, UniProt Q92985, residues 1-503, S101K/S471D/S472D/S475D/S476D/S477D/S483D/S484D/S487D)
# Technique: protein-binding microarray
# Form: double-stranded DNA, one strand shown
# Medium: in vitro
# Tested at: 250 nM
# Setting: 60-bp whole probe
# Together with: salmon DNA 0.4 mg/ml
# Reference: random background probes
# Reading: higher = stronger binding
# All sequences stand within: GCCTAGCAC … GTCTTGATTCGCTTGACGCTGCTG
# Target sequence (chain): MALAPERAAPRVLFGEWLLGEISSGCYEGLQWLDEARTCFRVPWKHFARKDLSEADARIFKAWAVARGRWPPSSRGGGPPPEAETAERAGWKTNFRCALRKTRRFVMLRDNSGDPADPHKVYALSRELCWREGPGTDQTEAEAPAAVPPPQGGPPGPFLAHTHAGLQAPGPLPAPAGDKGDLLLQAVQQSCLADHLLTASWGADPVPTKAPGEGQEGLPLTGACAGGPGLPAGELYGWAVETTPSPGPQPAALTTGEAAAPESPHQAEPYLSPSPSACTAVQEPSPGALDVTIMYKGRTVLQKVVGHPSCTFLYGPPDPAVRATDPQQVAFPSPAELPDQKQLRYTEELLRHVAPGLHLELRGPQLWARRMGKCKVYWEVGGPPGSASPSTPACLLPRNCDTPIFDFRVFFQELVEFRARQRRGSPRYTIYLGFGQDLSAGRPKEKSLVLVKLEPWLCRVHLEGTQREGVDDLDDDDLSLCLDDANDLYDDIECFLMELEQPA
Strand,log fluorescence
TTAGGACTTGGACTGGGTTAGTGCTAG,0.196 z-score
TACTTTCTATCTCTGTTTTTGTGCTAG,3.2 z-score
GACGATATCAGTTTCGAGACGTGCTAG,4.39 z-score
GAGTTTCTATTTTCTGAATGGTGCTAG,10.1 z-score
TTGGATATCAGTCTCGATTAGTGCTAG,1.54 z-score
TTAGGACTGGGGACTCGGTTAGTGCTA,0.135 z-score
CTGCCTCACATTGCTAAGACGTGCTAG,1 z-score
GACGATATCCTTTTCCTGACGTGCTAG,0.805 z-score
TTAGGACTGGGTTTCGGTTCGTGCTAG,10.1 z-score
TTAGATATCGCGACTGGATTAGTGCTA,0.0878 z-score
TTAGATTTCAGCCTCGATTAGTGCTAG,0.241 z-score
TTCGATATCGGGACTGGATTAGTGCTA,0.259 z-score
GACGTTCTCAGTCTCGAGACGTGCTAG,1.11 z-score
TTAGGTATACTACTGCTTTAGTGCTAG,-0.0519 z-score
TCATGAACCATTTTGGTACTGTGCTAG,-0.249 z-score
GACGGTTTCGGTCTCGGCACGTGCTAG,7.24 z-score
TCATTTCAGTTTCTCTTACTGTGCTAG,2.78 z-score
TTAGATTTCCTTCTCCTTTAGTGCTAG,0.945 z-score
TTAGGTCTCGGTCTGGGTTAGTGCTAG,0.939 z-score
GACGGGTTCGGACTGGGGACGTGCTAG,0.18 z-score
ATTTTTTTTAGTGGATGAAAGTGCTAG,0.49 z-score
TCAATTATAACACTCTTACTGTGCTAG,0.461 z-score
ATGGGTATGGCCTATTTATATGTGCTA,-0.547 z-score
CTTTATGTCCTGTCTACATGGGTGCTA,0.509 z-score

# Sample 2
# Target: ABI1, truncated, D143A, DHFR fusion (Arabidopsis thaliana)
# Technique: DHFR PCA, deep sequencing
# Medium: yeast
# Setting: methotrexate growth selection, single substitutions
# Together with: (+)-ABA 0.11 µM
# Reference: wild-type fitted maximum
# Reading: higher = stronger binding
# Starting sequence: PYL1, truncated, DHFR fusion (Arabidopsis thaliana); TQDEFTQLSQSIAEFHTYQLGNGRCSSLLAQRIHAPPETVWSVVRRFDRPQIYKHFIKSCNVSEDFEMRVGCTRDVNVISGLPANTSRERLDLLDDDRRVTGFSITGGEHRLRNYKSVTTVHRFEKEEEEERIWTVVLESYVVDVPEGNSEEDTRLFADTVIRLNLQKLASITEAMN; partner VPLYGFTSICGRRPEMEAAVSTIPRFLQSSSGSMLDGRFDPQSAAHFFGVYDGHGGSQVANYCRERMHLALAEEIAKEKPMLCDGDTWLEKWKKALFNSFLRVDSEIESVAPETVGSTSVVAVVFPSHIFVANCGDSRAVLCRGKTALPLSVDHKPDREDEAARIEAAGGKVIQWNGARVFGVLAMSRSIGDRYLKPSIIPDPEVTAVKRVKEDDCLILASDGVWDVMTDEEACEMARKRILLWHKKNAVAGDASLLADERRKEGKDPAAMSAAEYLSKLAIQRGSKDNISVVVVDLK
Change,relative binding score [%]
E130G,36
H55M,34.9
E14A,8.88
A30C,16.5
H122Q,-5.09
E38D,31.4
T120Q,-4.36
S26R,1.67
E109W,-4.97
F15I,-1.69
Y53P,-8.23
A35Y,-3.64
S171L,29.1
I33V,7.67
S11H,25.5
D97K,39.6

# Sample 3
# Target: Sal-like protein 4, full length isoform A (SALL4, Homo sapiens, UniProt Q9UJQ4, residues 1-1053)
# Sequence of UniProt Q9UJQ4 (whole entry, looked up): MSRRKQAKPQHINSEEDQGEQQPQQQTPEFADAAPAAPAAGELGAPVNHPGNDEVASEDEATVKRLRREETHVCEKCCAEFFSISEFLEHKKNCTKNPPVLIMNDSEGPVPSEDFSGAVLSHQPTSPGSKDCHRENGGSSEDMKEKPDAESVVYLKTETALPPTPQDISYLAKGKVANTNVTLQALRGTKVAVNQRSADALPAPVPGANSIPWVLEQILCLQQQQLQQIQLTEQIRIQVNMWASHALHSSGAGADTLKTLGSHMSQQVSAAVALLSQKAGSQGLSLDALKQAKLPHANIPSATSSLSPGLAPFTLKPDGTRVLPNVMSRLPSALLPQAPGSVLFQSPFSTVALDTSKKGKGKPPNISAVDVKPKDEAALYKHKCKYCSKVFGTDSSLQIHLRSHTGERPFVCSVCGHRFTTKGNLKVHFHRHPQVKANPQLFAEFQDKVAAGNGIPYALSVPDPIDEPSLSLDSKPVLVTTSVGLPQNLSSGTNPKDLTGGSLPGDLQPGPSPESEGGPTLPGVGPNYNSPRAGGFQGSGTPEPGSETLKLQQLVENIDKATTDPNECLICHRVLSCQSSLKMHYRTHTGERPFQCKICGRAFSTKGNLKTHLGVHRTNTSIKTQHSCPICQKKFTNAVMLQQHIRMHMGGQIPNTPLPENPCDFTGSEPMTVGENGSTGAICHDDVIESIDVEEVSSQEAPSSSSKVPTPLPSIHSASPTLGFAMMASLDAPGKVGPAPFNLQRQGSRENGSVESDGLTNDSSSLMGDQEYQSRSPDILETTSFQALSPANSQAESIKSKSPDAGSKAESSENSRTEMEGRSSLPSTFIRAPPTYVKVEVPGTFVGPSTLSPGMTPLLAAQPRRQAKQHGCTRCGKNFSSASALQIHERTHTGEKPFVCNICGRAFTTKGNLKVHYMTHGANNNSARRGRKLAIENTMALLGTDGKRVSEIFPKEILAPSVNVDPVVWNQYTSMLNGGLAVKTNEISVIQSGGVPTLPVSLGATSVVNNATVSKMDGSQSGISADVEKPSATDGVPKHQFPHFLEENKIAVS
# Technique: universal PBM
# Form: double-stranded DNA, one strand shown
# Medium: in vitro
# Tested at: 600 nM
# Setting: 8-mer, flanks averaged, mean of replicates
# Reading: higher = stronger binding
Strand,E-score
TCAGTTCA,0.0601
CTGCGCGC,-0.133
GGCAGTGA,-0.215
CAATGGGA,-0.0418
AAGACTAC,0.0907
ACCGGTCA,-0.159
ATGTCCGA,-0.069
GGATTGTA,0.214
CGAGCACG,-0.299
AGCGCCTG,-0.338
ATACCTGC,-0.0159
ACCCAAGA,-0.0283
CTCTCAAA,0.0782
AACTCAAT,0.179
AACAGCAG,0.0647
CGTATGAA,0.253
AATGTCTG,0.127
CGGGAACA,-0.103
CCGGATGA,-0.258
ACTTAATC,0.186
AGGGATTG,-0.182
CGAGCAGA,-0.266

# Sample 4
# Target: Centromere-binding protein 1, full length, N-terminal tag (CBF1, Saccharomyces cerevisiae, UniProt P17106, residues 1-351)
# Sequence of UniProt P17106 (whole entry, looked up): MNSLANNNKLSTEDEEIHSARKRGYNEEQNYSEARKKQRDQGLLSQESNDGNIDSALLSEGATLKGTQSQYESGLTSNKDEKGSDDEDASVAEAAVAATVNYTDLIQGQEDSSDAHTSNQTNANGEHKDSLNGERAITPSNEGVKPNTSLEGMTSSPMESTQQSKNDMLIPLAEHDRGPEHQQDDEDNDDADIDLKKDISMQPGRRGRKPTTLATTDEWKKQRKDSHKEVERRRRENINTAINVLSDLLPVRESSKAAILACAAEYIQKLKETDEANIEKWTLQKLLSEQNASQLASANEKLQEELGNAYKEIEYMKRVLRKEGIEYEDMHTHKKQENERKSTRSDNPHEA
# Technique: protein-binding microarray
# Form: double-stranded DNA, one strand shown
# Medium: in vitro
# Tested at: 0.8 µM
# Setting: whole 60-bp probe, no competitor
# Reading: higher = stronger binding
Strand,fluorescence intensity [a.u.]
CCTAACTACTATAGCCACCAGACATAGCTTCGTACAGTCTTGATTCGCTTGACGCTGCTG,510
TGTACGAAGCTATCATAGGTGACTATAGTAGTTAGGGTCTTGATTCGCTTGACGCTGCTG,530
CCTAACTACTATACACACGTCACATAGCTTCGTACAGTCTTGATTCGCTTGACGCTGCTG,555
TGTACGAAGCTATGACACGATATTATAGTAGTTAGGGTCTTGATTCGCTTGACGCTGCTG,532
CCTAACTACTATAGTCACATGCTATAGCTTCGTACAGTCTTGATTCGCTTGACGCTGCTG,3470
CTACCAGGTTTTGACAACGTGATGAGGTAATCTTTCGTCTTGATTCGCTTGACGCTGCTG,2310
GAAGGTTATGGTTTTCGTGTGACCTTGTTTTGATAGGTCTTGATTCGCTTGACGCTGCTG,591
GAATTTTTTGCACATCACGTATGCTACTTTTGTTAGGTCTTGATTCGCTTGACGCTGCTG,677
CTATTTTGGAGTTGTCACGGTATAGATATGTCTTTCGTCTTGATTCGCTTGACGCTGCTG,703
GAAATGTGAAACTGATGTCTGATGCTGTTCTTTTAGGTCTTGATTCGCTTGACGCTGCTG,506
GAATACAAATTACGGTGTGACGTAGATCTGAATTAGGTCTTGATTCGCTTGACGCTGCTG,555
GAAGTACAGAAATGATATCACATGTAAGTGATATAGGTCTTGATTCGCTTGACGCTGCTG,2050
GAAAACAATAAACTCAACGTGTACACTTATGCTTAGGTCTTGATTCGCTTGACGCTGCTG,552
GAAGTTACTGTGGTTCACGTGATTCAAGTGTGCTAGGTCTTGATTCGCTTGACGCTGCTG,14500
GAACTTTCATCAATTCACGTTATTTTGCCGCCGTAGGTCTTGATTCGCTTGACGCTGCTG,642
CTACGGATGGATTCTCAACTGATATTTATATGGTTCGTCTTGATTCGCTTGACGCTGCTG,517
CTAGTCAATAGCAAGAGCGTGCGCGAGATCATGTTCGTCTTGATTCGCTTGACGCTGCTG,579
GAAGTAATTAATGGTATCGTGATCGTTACCTATTAGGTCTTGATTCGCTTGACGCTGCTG,2110
GAACATTTAGAGTTTCTCATCACCATCACCATATAGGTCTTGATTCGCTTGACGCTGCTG,535
TGTACGAAGCTATATTTCATCACTATAGTAGTTAGGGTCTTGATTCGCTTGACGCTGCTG,531
CTAAGATCTGAAAGTCACATATAAGAGCAATATTTCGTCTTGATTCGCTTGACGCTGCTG,558
CTACCAGAGAACCATCATCATGCCTCTCCTCAATTCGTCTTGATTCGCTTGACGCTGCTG,507
GAAAGTTCAGCCTGGAACGTGTTGAACAGAGATTAGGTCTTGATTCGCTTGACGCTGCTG,548
CTAGTTGGTTTGCATCTGATGTTCCTTAAAGATTTCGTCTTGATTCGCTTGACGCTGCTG,556
CTACATACACGAACCCGCGTGCGCCTGGTAAATTTCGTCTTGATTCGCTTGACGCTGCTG,497

# Sample 5
# Target: Histone acetyltransferase KAT6A, winged helix 2, GST fusion (KAT6A, Homo sapiens, UniProt Q92794, residues 85-181)
# Technique: protein binding microarray
# Form: double-stranded DNA, one strand shown
# Medium: in vitro
# Tested at: not given
# Setting: 8-mer, flanks averaged, mean of 2 arrays, mostly near background
# Reference: not given
# Reading: higher = stronger binding
# Construct (chain): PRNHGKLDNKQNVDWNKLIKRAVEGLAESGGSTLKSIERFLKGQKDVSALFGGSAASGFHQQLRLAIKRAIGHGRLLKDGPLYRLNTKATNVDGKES
Strand,E-score
CGTCATTC,0.0425
CGGCTTGC,0.251
ATTTTCAA,0.101
AACGCAGC,0.213
AGTCTCGC,-0.17
CCAGCACC,-0.184
AACCGAAG,0.0248
CAACCAAA,-0.00585
ACATGAGC,-0.00201
AATGACCT,-0.134
AGGCAATA,-0.00879
ACCACTCT,-0.164
AAGTCATA,-0.0423
TCATATAA,-0.0354
CAGCCGCG,0.108
CGTGGGAA,-0.0361
ATACGTCC,-0.113
CTCGTTGC,0.171

# Sample 6
# Target: CCNE2, cyclin fold, Cln2 fusion (human)
# Technique: yeast growth competition, sequencing
# Medium: yeast
# Setting: weak parent motif
# Reference: not given
# Reading: higher = stronger binding
# Starting sequence: CDAN1 docking peptide (human); RGARSQLFPPTEA; partner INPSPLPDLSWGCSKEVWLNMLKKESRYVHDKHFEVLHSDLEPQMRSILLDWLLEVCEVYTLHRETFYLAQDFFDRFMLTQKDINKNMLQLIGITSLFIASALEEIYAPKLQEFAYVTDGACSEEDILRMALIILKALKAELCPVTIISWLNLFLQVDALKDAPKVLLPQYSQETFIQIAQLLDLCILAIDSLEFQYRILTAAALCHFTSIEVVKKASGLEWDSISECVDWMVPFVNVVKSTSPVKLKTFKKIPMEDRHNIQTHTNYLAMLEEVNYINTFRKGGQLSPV
Change,normalised enrichment score
RAARSQLFPPTEA [G2A],0.412
RGARSQLFPATEA [P10A],0.697
RGAASQLFPPTEA [R4A],0.0491
RGARSQLFAPTEA [P9A],0.268
RGARSQLFPPAEA [T11A],0.24
RGARSQAFPPTEA [L7A],0.126

# Further values, each from its own experiment
Molecule,target,test,test system,setting,scale,measurement,result
"PhoQ, residues 284 288 289 292 302 303 SMYGEC","PhoP, residues 12 14 15 18 19 GQALL (Escherichia coli, UniProt P23836)","Sort-seq, refers to: YFP reporter",E. coli,"PhoQ-PhoP variant library, together with: 10 µM Mg2+","reference: high Mg2+ state, higher = stronger signaling",fold induction,1.31
